Experimental data gathered from unrelated publications.
MTOR: Serine/threonine-protein kinase mTOR (MTOR, Homo sapiens, UniProt P42345)
MTOR with FKBP12: Serine/threonine-protein kinase mTOR, with FKBP12 (MTOR, Homo sapiens, UniProt P42345)

Compound | target | assay | system | conditions | how to read | quantity | result
O=C(NC1CCC1)c1ccc2nc(-c3cccc(NS(=O)(=O)NCCN4CCCCC4)c3)cn2c1 | MTOR | enzyme activity | – | 10 µM | – | remaining activity | 62%
Cc1cnc(NC2CCOCC2)nc1-n1cnc(C(=O)NC(CN)c2cc(F)cc(Cl)c2)c1 (stereo not shown) | MTOR with FKBP12 | radiometric | – | 1 µM | – | remaining activity | 108%
CCN(CC)c1ccc(C2=NNC(=O)CC2C)cc1[N+](=O)[O-] (stereo not shown) | MTOR with FKBP12 | kinase activity, inhibitor | – | 10 µM | – | remaining activity | 110%
CCN1CCN(Cc2ccc(NC(=O)c3ccc(C)c(Oc4ccnc5[nH]ccc45)c3)cc2C(F)(F)F)CC1 | MTOR | – | Huh-7 | 1 µM | – | inhibition | < 35%
Cc1cc(Nc2cc(N3CCN(C)CC3)nc(Sc3ccc(NC(=O)C4CC4)cc3)n2)[nH]n1 | MTOR | kinase activity | – | 0.03 µM | reference: control | remaining activity | 104%
Cc1ccc(NC(=O)c2ccc(C)c(C(F)(F)F)c2)cc1C#Cc1nn(C2CCC(O)CC2)c2ncnc(N)c12 (stereo not shown) | MTOR with FKBP12 | enzyme activity | – | 10 µM, together with: ATP 10 µM | – | remaining activity | 119%
c1cnc2ccc(Nc3nc(NC4CC4)c4nc[nH]c4n3)cc2c1 | MTOR | kinase activity | – | 1 µM | reference: control | remaining activity | 86%
COc1cc(-c2cncc3c2CN(C)Cc2cc(N4CCNCC4)ccc2-3)cc(OC)c1OC | MTOR with FKBP12 | enzyme activity | – | 1 µM, together with: 10 µM ATP | reference: DMSO | remaining activity | 103%
Cc1cc(NC(=O)c2cccc3cc(-c4cccc5[nH]nc(N)c45)ccc23)ccc1F | MTOR with FKBP12 | enzyme activity, kinase profiling panel | – | 0.1 µM | – | remaining activity | 101%
C=CC(=O)N1CCC(COCC(=O)N2CCN(c3nc(-c4cnc(N)nc4C(F)F)nc(N4CCOC[C@@H]4C)n3)CC2)CC1 | MTOR | enzyme activity | – | 1 µM | – | remaining activity | 4.5%
Cc1nc(NC(=O)N2CCC[C@H]2C(N)=O)sc1-c1ccnc(C(C)(C)C(F)(F)F)c1 | MTOR | – | – | 10 µM | – | remaining activity | 12%
COc1ccc2oc(-c3ccc4nc(N)oc4c3)c/c(=N\c3ccccc3NC(=O)CCN)c2c1 | MTOR with FKBP12 | kinase activity | – | 1 µM | reference: untreated control | remaining activity | 82%
C=CC(=O)N1CCC(C(=O)NCC(=O)N2CCN(c3nc(-c4cnc(N)nc4C(F)F)nc(N4CCOCC4)n3)CC2)CC1 | MTOR | – | – | 1 µM | – | remaining activity | 1.2%
COc1cc(Cl)c(C(=O)N[C@@H](CN[C@H]2CC[C@@H](N)CC2)Cc2ccc(C#N)cc2)cc1-c1ccc(CN[C@H](C)c2ccc(C)cc2)o1 | MTOR with FKBP12 | enzyme activity, KinaseProfiler panel | – | 1 µM | – | remaining activity | 108%
CCCOc1ccc(OC)c(F)c1C(=O)c1ccc(C(=O)N[C@@H]2CNC[C@H]2NC(=O)c2ccc3[nH]ncc3c2)cc1 | MTOR with FKBP12 | kinase activity | – | 10 µM | – | remaining activity | 59%
Cc1ccc(C(=O)NCc2ccsc2)cc1C#Cc1cn(C(C)C)c2ncnc(N)c12 | MTOR with FKBP12 | kinase activity | – | 1 µM, together with: ATP at Km | – | remaining activity | 109%

A few entries again:
Compound | target | assay | system | conditions | how to read | quantity | result
Cc1ccc(NC(=O)c2ccc(C)c(C(F)(F)F)c2)cc1C#Cc1nn(C2CCC(O)CC2)c2ncnc(N)c12 (stereo not shown) | MTOR with FKBP12 | enzyme activity | – | 10 µM, together with: ATP 10 µM | – | remaining activity | 119%
